Measurements of several laboratories.
Parts stem from different laboratories: compare values within a part only.

Sample 1
Target: Ras GTPase-activating protein-binding protein 1, full length (G3BP1, Homo sapiens, UniProt Q13283)
UniProt Q13283, sequence (whole entry, looked up): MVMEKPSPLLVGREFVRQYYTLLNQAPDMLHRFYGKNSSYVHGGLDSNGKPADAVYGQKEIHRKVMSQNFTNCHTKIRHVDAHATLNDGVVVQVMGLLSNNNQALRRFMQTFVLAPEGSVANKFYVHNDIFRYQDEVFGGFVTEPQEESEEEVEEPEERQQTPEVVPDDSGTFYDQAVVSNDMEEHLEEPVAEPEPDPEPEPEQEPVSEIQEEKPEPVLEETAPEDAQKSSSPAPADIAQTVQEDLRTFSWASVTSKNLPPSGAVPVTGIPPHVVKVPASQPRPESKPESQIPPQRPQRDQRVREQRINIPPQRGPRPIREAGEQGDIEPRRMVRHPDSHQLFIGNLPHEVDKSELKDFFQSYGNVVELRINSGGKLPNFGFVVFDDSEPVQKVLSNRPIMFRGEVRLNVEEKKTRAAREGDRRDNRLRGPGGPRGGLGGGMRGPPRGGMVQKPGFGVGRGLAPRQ
Technique: RNA Bind-n-Seq
Molecule type: RNA
Matrix: in vitro
Concentration: 200 nM
Setting: whole 134-nt RNA, ends assumed
Together with: 150 mM LiCl
Reference: input library
Reading: higher = stronger binding
Each molecule: 7-deaza-guanosine replaces G
All sequences stand within: GGGAGUUCUACAGUCCGACGAUC … UGGAAUUCUCGGGUGUCAAGG
Sequence | log2 enrichment
CCUCAAGUCCUGUGCUACACAUCGUAUGUACCGAAUCGGGCGGGGCGGCGGGGAAAGUAUUAUGUUACGCCGUUCGGAUCUGCACUUCCA | -0.0957
UAACUUUAGAGGAGGAUCUGAUGGAUAUGGCAGUGGACGUUGAUUUGGGGAUGGCUAUAAUGGGUAUGGAGGAGGACCUGGAGGUGGCAA | 0.0321
CAAGUCCUGUGCUACACAUCGUAUGUACCGAAUCGGUUUUUUUGGUUUGGAAAGGAAAGUAUUAUGUUACGCCGUUCGGAUCUGCACUUC | -1.25
UAACGUUAGAGGAGGAUCUGAUGGAUAUGGCAGUGGACGUGGAUUUGGGGAUGGCUAUAAUGGGUAUGGAGGAGGACCUGGAGGUGGCAA | -0.336
CUCAAGUCCUGUGCUACACAUCGUAUGUACCGAAUCGGAAAAAGGUGGUUUGGAAAGUAUUAUGUUACGCCGUUCGGAUCUGCACUUCCA | -0.286
GUCCUGUGCUACACAUCGUAUGUACCGAAUCGGUUUUUUUGGAAAAAGGUUUUUUUGGAAAGUAUUAUGUUACGCCGUUCGGAUCUGCAC | -2.47
AAGUCCUGUGCUACACAUCGUAUGUACCGAAUCGGGAAAAGGGGAAAAGGAAAAGGAAAGUAUUAUGUUACGCCGUUCGGAUCUGCACUU | -0.0485

Sample 2
Target: Histone acetyltransferase KAT6A, both winged helices, GST fusion (KAT6A, Homo sapiens, UniProt Q92794, residues 1-181)
Technique: protein binding microarray
Molecule type: double-stranded DNA, one strand shown
Matrix: in vitro
Concentration: not given
Setting: 8-mer, flanks averaged, mean of 2 arrays, mostly near background
Reference: not given
Reading: higher = stronger binding
Target sequence (chain): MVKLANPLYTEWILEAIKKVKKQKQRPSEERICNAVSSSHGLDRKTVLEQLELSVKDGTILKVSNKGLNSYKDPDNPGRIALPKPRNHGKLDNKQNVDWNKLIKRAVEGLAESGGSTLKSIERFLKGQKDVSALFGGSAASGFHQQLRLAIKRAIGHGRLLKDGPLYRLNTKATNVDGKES
Sequence | E-score
CCTAGTAG | -0.163
CATAAATA | -0.0899
CTTTGGGA | -0.242
CGCGAGGA | 0.181
CAATATGC | -0.0438
CCCGTTTC | 0.181
CATATAGG | -0.0882
GCGGAAGC | 0.293

Sample 3
Target: Interferon regulatory factor 7, full length, phosphomimetic (IRF7, Homo sapiens, UniProt Q92985, residues 1-503, S471D/S472D/S475D/S476D/S477D/S483D/S484D/S487D)
Technique: protein-binding microarray
Molecule type: double-stranded DNA, one strand shown
Matrix: in vitro
Concentration: 2200 nM top
Setting: 60-bp whole probe
Together with: salmon DNA 0.4 mg/ml
Reference: random background probes
Reading: higher = stronger binding
All sequences stand within: GCCTAGCAC … GTCTTGATTCGCTTGACGCTGCTG
Construct (chain): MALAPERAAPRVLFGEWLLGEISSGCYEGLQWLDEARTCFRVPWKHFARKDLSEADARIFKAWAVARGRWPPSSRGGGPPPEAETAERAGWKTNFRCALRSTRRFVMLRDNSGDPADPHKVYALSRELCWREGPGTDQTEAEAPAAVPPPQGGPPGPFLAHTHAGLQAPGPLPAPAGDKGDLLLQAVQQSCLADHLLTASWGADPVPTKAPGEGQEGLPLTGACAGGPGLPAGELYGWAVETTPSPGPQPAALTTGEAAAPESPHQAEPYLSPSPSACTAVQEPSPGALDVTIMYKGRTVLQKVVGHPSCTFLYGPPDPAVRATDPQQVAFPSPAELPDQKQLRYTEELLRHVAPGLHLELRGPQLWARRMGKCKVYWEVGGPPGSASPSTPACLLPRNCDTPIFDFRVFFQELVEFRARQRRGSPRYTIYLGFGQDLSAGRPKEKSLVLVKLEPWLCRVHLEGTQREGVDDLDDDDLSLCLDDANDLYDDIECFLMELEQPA
Sequence | fitted relative affinity [z-score]
TCAGCTTCCATTTTCTGACTGTGCTAG | 2.95
TTAGAGCTCAGACTGGATTAGTGCTAG | -0.599
TGAGGACTGGGGTATCGGTTAGTGCTA | -0.656
CTTAACCTGGGTCTCTGAAGGTGCTAG | -0.0244
GCCCCACCCGCTCTGGCCCCGTGCTAG | -0.109
GACCGACTGCTTCTCCTGACGTGCTAG | 0.755
GACGGTTTCCTTTTGCTGACGTGCTAG | 5.95
GACGAAATCAGTATCGAGACGTGCTAG | 0.129

Single results of other studies
Molecule | target | test | system | conditions | how to read | measurement | result
PhoQ, residues 284 288 289 292 302 303 MLMVEA | PhoP, residues 12 14 15 18 19 AWHSL (Escherichia coli, UniProt P23836) | Sort-seq, measured: YFP reporter | E. coli | PhoQ-PhoP variant library, together with: 10 µM Mg2+ | reference: high Mg2+ state, higher = stronger signaling | fold induction | 4.08
